Results collected from several papers.
± gives the spread as reported.

CN(C)c1ccc(N(Cc2cc(Cl)cs2)C(=O)Cc2cncc3ccccc23)cc1  selectivity index (SARS-CoV-2; Caco-2, Omicron XBB.1.5; relative to: CC50 over EC50): 257
CC[C@H](C)[C@H](NC(=O)[C@H](CC(C)C)NC(=O)[C@H](Cc1c[nH]c2ccccc12)NC(=O)[C@H](CCC(N)=O)NC(=O)[C@@H](NC(=O)[C@H](Cc1ccccc1)NC(=O)[C@H](C)NC(=O)[C@H](CCCCNC(=O)COCCOCCNC(=O)COCCOCCNC(=O)CC[C@H](NC(=O)CCCCCCCCCCCCCCCCCCC(=O)O)C(=O)O)NC(=O)[C@H](CCC(N)=O)NC(=O)[C@H](C)NC(=O)[C@@H](NC(=O)[C@H](CCCCN)NC(=O)[C@H](CC(=O)O)NC(=O)[C@H](CC(C)C)NC(=O)C(C)(C)NC(=O)[C@@H](NC(=O)[C@H](CO)NC(=O)[C@H](Cc1ccc(O)cc1)NC(=O)[C@H](CC(=O)O)NC(=O)[C@H](CO)NC(=O)[C@@H](NC(=O)[C@H](Cc1ccccc1)NC(=O)[C@@H](NC(=O)CNC(=O)[C@H](CCC(=O)O)NC(=O)C(C)(C)NC(=O)[C@@H](N)Cc1ccc(O)cc1)[C@@H](C)O)[C@@H](C)O)[C@@H](C)CC)[C@@H](C)CC)C(C)C)C(=O)N[C@@H](C)C(=O)NCC(=O)NCC(=O)N1CCC[C@H]1C(=O)N[C@@H](CO)C(=O)N[C@@H](CO)C(=O)NCC(=O)N[C@@H](C)C(=O)N1CCC[C@H]1C(=O)N1CCC[C@H]1C(=O)N1CCC[C@H]1C(=O)N[C@@H](CO)C(N)=O  tmax (human, control and renal impairment groups, plasma; subcutaneous, 5 mg, range of group medians): 48 to 60 h
CC[C@H](C)[C@H](NC(=O)[C@H](CC(C)C)NC(=O)[C@H](Cc1c[nH]c2ccccc12)NC(=O)[C@H](CCC(N)=O)NC(=O)[C@@H](NC(=O)[C@H](Cc1ccccc1)NC(=O)[C@H](C)NC(=O)[C@H](CCCCNC(=O)COCCOCCNC(=O)COCCOCCNC(=O)CC[C@H](NC(=O)CCCCCCCCCCCCCCCCCCC(=O)O)C(=O)O)NC(=O)[C@H](CCC(N)=O)NC(=O)[C@H](C)NC(=O)[C@@H](NC(=O)[C@H](CCCCN)NC(=O)[C@H](CC(=O)O)NC(=O)[C@H](CC(C)C)NC(=O)C(C)(C)NC(=O)[C@@H](NC(=O)[C@H](CO)NC(=O)[C@H](Cc1ccc(O)cc1)NC(=O)[C@H](CC(=O)O)NC(=O)[C@H](CO)NC(=O)[C@@H](NC(=O)[C@H](Cc1ccccc1)NC(=O)[C@@H](NC(=O)CNC(=O)[C@H](CCC(=O)O)NC(=O)C(C)(C)NC(=O)[C@@H](N)Cc1ccc(O)cc1)[C@@H](C)O)[C@@H](C)O)[C@@H](C)CC)[C@@H](C)CC)C(C)C)C(=O)N[C@@H](C)C(=O)NCC(=O)NCC(=O)N1CCC[C@H]1C(=O)N[C@@H](CO)C(=O)N[C@@H](CO)C(=O)NCC(=O)N[C@@H](C)C(=O)N1CCC[C@H]1C(=O)N1CCC[C@H]1C(=O)N1CCC[C@H]1C(=O)N[C@@H](CO)C(N)=O  adverse events (puncture site pain) (healthy subjects, single ascending dose; 8.0 mg): 0%
Nc1ncnc2c([C@@H]3N[C@H](CO)[C@@H](O)[C@H]3O)c[nH]c12  inhibition (Zaire ebolavirus; viral replication; HeLa, Kikwit; 3.1 µM): 0%
Nc1ccccc1-c1noc(-c2ccncc2)n1  lipophilic ligand efficiency (Replicase polyprotein 1ab, papain-like protease (rep, Severe acute respiratory syndrome coronavirus 2, UniProt P0DTD1)): 1.34
CCCCc1ccc(C(=O)O)nc1  Cmax (Sprague-Dawley rat, serum; oral gavage, 25 mg/kg): 52 ± 11 µg/mL
CNC(=O)[C@@H](NC(=O)[C@H](CC(C)C)[C@H](O)C(=O)NO)C(C)(C)C  remaining fibrinogen Bβ chain (human fibrinogen; SDS-PAGE; Daboia russelii; concentration not given, unit not given, together with: WB venom; relative to: untreated fibrinogen): 0.693
COc1ccc([C@@H](O)c2cc(-c3ncnc4cc(N5CCOCC5)ccc34)c(F)cc2Cl)nn1  injury, poisoning, procedural complications incidence (patients, advanced solid tumours; oral, 150 mg once daily, 10 dosing days, treatment-emergent, together with: avelumab, radiotherapy): 2%
CC[C@H](C)[C@H](NC(=O)[C@H](CC(C)C)NC(=O)[C@H](Cc1c[nH]c2ccccc12)NC(=O)[C@H](CCC(N)=O)NC(=O)[C@@H](NC(=O)[C@H](Cc1ccccc1)NC(=O)[C@H](C)NC(=O)[C@H](CCCCNC(=O)COCCOCCNC(=O)COCCOCCNC(=O)CC[C@H](NC(=O)CCCCCCCCCCCCCCCCCCC(=O)O)C(=O)O)NC(=O)[C@H](CCC(N)=O)NC(=O)[C@H](C)NC(=O)[C@@H](NC(=O)[C@H](CCCCN)NC(=O)[C@H](CC(=O)O)NC(=O)[C@H](CC(C)C)NC(=O)C(C)(C)NC(=O)[C@@H](NC(=O)[C@H](CO)NC(=O)[C@H](Cc1ccc(O)cc1)NC(=O)[C@H](CC(=O)O)NC(=O)[C@H](CO)NC(=O)[C@@H](NC(=O)[C@H](Cc1ccccc1)NC(=O)[C@@H](NC(=O)CNC(=O)[C@H](CCC(=O)O)NC(=O)C(C)(C)NC(=O)[C@@H](N)Cc1ccc(O)cc1)[C@@H](C)O)[C@@H](C)O)[C@@H](C)CC)[C@@H](C)CC)C(C)C)C(=O)N[C@@H](C)C(=O)NCC(=O)NCC(=O)N1CCC[C@H]1C(=O)N[C@@H](CO)C(=O)N[C@@H](CO)C(=O)NCC(=O)N[C@@H](C)C(=O)N1CCC[C@H]1C(=O)N1CCC[C@H]1C(=O)N1CCC[C@H]1C(=O)N[C@@H](CO)C(N)=O  AUC(0-168 h) (human, plasma; subcutaneous, 15.0 mg once weekly, week 23, multiple doses): 357 µg·h/mL
CC(C)(C)[C@H](NC(=O)C(F)(F)F)C(=O)N1C[C@H]2[C@@H]([C@H]1C(=O)N[C@H](C#N)C[C@@H]1CCNC1=O)C2(C)C  AUC(0-inf) (healthy humans, fasted, plasma; oral, 150 mg single dose): 2.25 µg·h/mL
Cn1cnc(Cn2c(=O)[nH]/c(=N\c3cc4cn(C)nc4cc3Cl)n(Cc3cc(F)c(F)cc3F)c2=O)n1  AUC(0-inf) (human, normal renal function; oral, 375 mg, single dose, geometric mean): 996 µg·h/mL
CC[C@H](C)[C@H](NC(=O)[C@H](C)NC(=O)[C@H](CCC(=O)O)NC(=O)[C@H](CCC(=O)O)NC(=O)[C@H](CC(C)C)NC(=O)[C@H](CCCCN)NC(=O)[C@H](CCCCN)NC(=O)[C@H](CCSC)NC(=O)[C@H](CCC(=O)O)NC(=O)[C@H](Cc1ccc(O)cc1)NC(=O)[C@H](CCC(=O)O)NC(=O)[C@H](CC(C)C)NC(=O)[C@H](CC(=O)O)NC(=O)[C@H](CC(C)C)NC(=O)[C@H](Cc1ccccc1)NC(=O)[C@@H](NC(=O)[C@@H](NC(=O)[C@H](CC(N)=O)NC(=O)[C@@H](NC(=O)[C@H](CCC(N)=O)NC(=O)[C@H](CC(=O)O)NC(=O)[C@H](CC(C)C)NC(=O)[C@@H](N)CO)[C@@H](C)CC)C(C)C)[C@@H](C)O)C(=O)N[C@@H](CCCCN)C(=O)N[C@@H](CCCCN)C(=O)N[C@@H](CC(C)C)C(=O)N[C@@H](CCC(=O)O)C(=O)N[C@@H](CCC(=O)O)C(=O)N[C@@H](CO)C(=O)N[C@@H](Cc1ccc(O)cc1)C(=O)N[C@H](C(=O)N[C@@H](CC(=O)O)C(=O)N[C@@H](CC(C)C)C(=O)N[C@@H](CCCCN)C(=O)N[C@@H](CCC(=O)O)C(=O)N[C@@H](CC(C)C)C(=O)NCC(=O)N[C@@H](CO)C(=O)NCC(=O)N[C@@H](CO)C(=O)NCC(=O)NCCOCCOCCOCCOCCC(=O)N[C@@H](CSCC(=O)O[C@H]1CC[C@@]2(C)C(=CC[C@H]3[C@@H]4CC[C@H]([C@H](C)CCCC(C)C)[C@@]4(C)CC[C@@H]32)C1)C(N)=O)[C@@H](C)CC  fold reduction of activity (SARS-CoV-2; pseudovirus infection; concentration not given, room temperature, storage): ~58 fold
